Results from different studies.
Protocols differ between the studies behind these lines.
B1: CCL3 (Macaca mulatta, UniProt Q8HYQ3); chain ADTPTSCCFSYISRQIPQNFIADYFETNSQCSKPGVIFLTKRGRQVCADPSKEWVQKYVSDLELSA
Sequence of UniProt P23979 (whole entry, looked up): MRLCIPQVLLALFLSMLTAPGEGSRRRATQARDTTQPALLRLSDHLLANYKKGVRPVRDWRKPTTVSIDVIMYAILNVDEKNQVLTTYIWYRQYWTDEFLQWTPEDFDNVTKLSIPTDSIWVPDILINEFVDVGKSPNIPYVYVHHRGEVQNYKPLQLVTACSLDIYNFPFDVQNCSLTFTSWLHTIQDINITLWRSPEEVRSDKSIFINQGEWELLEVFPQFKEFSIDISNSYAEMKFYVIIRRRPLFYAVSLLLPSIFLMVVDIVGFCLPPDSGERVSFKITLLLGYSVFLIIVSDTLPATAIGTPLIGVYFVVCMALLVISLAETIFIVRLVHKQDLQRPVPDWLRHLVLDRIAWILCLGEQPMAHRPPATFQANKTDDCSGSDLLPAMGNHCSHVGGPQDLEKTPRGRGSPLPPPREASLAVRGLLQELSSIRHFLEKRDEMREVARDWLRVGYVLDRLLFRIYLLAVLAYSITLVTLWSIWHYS
Sequence of UniProt P43144 (whole entry, looked up): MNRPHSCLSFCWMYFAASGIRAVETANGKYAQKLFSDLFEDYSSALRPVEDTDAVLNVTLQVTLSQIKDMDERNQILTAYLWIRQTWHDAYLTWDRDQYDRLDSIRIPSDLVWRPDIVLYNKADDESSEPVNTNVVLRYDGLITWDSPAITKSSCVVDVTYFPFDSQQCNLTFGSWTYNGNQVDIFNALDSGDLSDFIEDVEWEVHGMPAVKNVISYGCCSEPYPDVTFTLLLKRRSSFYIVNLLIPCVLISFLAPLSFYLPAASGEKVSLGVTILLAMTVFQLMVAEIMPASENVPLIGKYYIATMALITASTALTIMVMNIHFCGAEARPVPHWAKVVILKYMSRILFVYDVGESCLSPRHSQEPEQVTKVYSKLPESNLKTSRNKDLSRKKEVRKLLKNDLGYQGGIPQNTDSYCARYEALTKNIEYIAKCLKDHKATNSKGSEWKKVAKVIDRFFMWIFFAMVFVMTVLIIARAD
Sequence of UniProt Q9JLB5 (whole entry, looked up): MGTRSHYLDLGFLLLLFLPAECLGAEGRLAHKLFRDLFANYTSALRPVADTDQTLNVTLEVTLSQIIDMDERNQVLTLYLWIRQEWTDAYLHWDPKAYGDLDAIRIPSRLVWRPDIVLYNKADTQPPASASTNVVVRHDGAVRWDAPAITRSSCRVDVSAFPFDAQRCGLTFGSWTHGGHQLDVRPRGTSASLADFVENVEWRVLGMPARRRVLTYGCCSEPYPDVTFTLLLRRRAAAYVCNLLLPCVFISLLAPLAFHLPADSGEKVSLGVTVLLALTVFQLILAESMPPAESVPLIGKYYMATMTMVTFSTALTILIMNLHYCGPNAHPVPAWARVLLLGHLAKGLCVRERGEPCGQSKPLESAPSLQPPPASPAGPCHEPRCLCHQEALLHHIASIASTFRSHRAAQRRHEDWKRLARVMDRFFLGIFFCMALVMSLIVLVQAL

Substance | tested on | test | endpoint | value
B1 (CCL3) | vCCI | native gel | molecule per partner | 1
CC(C)[C@@H]1NC(=O)[C@H](CC(N)=O)NC(=O)[C@H](Cc2ccc(O)cc2)NC(=O)[C@H](CCCNC(=N)N)NC(=O)[C@@H]2CSSC[C@@H]3NC(=O)[C@H](CCCCN)NC(=O)[C@@H]4CCCN4C(=O)CNC(=O)CNC(=O)[C@@H]4CSSC[C@H](NC(=O)[C@H]([C@@H](C)O)NC(=O)CNC(=O)[C@H]([C@@H](C)O)NC3=O)C(=O)N[C@@H]([C@@H](C)O)C(=O)N[C@H]3CSSC[C@H](NC(=O)CNC(=O)[C@H](Cc5c[nH]c6cc(Br)ccc56)NC(=O)CNC(=O)[C@H](CO)NC(=O)[C@@H]5CCCN5C(=O)[C@H](Cc5c[nH]cn5)NC1=O)C(=O)NCC(=O)N[C@@H](CSSC[C@H](NC(=O)[C@H](CCCCN)NC(=O)[C@H](CO)NC(=O)[C@H](CO)NC(=O)[C@H](CC(N)=O)NC(=O)[C@H]([C@@H](C)O)NC3=O)C(=O)NCC(=O)N2)C(=O)N[C@@H](C)C(=O)N[C@H](C(=O)N[C@@H](CO)C(N)=O)CSSC[C@H](NC(=O)CN)C(=O)N[C@@H]([C@@H](C)O)C(=O)N[C@@H](CCCNC(=N)N)C(=O)N[C@@H]([C@@H](C)O)C(=O)N4 | 5-hydroxytryptamine receptor 3A (Htr3a, Mus musculus, UniProt P23979) | receptor response, antagonist | Hill slope | 1
Gn/Gc heterodimer (Rift Valley fever virus) | itself | cryo-EM | subunits per oligomer | 6
GP Gn glycoprotein (Andes virus) | itself | cryo-EM | subunits per oligomer | 4
F fragment (Nipah virus) | itself | SEC | subunits per oligomer | 3
ohr (Burkholderia pseudomallei, UniProt Q3JK82) | itself | SEC | subunits per oligomer | 2
CC[C@H](C)[C@@H]1NC(=O)[C@H](CC(N)=O)NC(=O)[C@H](Cc2ccc(O)cc2)NC(=O)[C@H]([C@@H](C)O)NC(=O)[C@@H]2CSSC[C@@H]3NC(=O)[C@H](CC(N)=O)NC(=O)[C@H](Cc4ccc(O)cc4)NC(=O)[C@H](C(C)C)NC(=O)CNC(=O)[C@H]([C@@H](C)O)NC(=O)CNC(=O)[C@H](CCCCN)NC(=O)[C@@H]4CSSC[C@H](NC(=O)[C@H](CO)NC(=O)[C@H](CC(C(=O)O)C(=O)O)NC(=O)CNC3=O)C(=O)N[C@@H](CO)C(=O)N[C@H]3CSSC[C@H](NC(=O)CNC(=O)[C@H](CO)NC(=O)[C@H](CCCCN)NC(=O)[C@H](CCSC)NC(=O)[C@H](CO)NC(=O)CNC1=O)C(=O)N[C@@H](C)C(=O)N[C@@H](CSSC[C@H](NC(=O)[C@H](CO)NC(=O)[C@H](Cc1c[nH]cn1)NC(=O)[C@H](CC(C)C)NC(=O)CNC(=O)[C@H](CC(C(=O)O)C(=O)O)NC3=O)C(=O)N[C@@H](CCCNC(=N)N)C(=O)N2)C(=O)N[C@@H]([C@@H](C)CC)C(=O)N[C@H](C(=O)N[C@H](C(=O)N[C@@H](Cc1ccc(O)cc1)C(=O)N[C@@H](Cc1ccc(O)cc1)C(=O)O)[C@@H](C)O)CSSC[C@H](NC(=O)[C@@H](N)CCCCN)C(=O)N[C@@H](CC(N)=O)C(=O)N[C@@H](Cc1ccccc1)C(=O)N[C@@H](CC(=O)O)C(=O)N[C@@H](CCCCN)C(=O)N4 | Nicotinic acetylcholine receptor alpha9/alpha10 (Rattus norvegicus, UniProt P43144+Q9JLB5) | – | Hill slope | 1.9
GP Gc glycoprotein (Andes virus) | itself | cryo-EM | subunits per oligomer | 2
